Assay results pooled from the literature.
Numbered parts are unrelated; each lists some results of a single study.

Sample 1 — cell line: U-87 MG; concentration: concentration not given; relative to: DMSO
Structure (SMILES): CCN1/C(=C/C=C2\CCCC(/C=C/C3=[N+](CC)c4ccccc4C3(C)C)=C2NCCCCCCCCN2CCC(Nc3nc4ccccc4n3Cc3ccc(F)cc3)CC2)C(C)(C)c2ccccc21
test | log2 fold change
item: KLHL21 mRNA | 0.97
item: CAMK2N1 mRNA | -0.833
item: ARFGAP3 mRNA | 0.835
item: YPEL2 mRNA | 1.07
item: LXN | -1.71
item: PELI1 mRNA | 2.12
item: TSPOAP1 mRNA | -1.87
item: CENPB mRNA | -0.871
item: ELAC2 mRNA | -1.03
item: NXF1 mRNA | 0.981
item: SH2D3C mRNA | 2.73
item: MATN2 mRNA | -2.14
item: AXL mRNA | -1.27
item: ST3GAL1 mRNA | 1.69
item: F2RL1 mRNA | -1.78
item: EGR1 mRNA | -0.997

Sample 2 — observed: thermal unfolding; technique: differential scanning fluorimetry; concentration: 5.5 µM; direction: higher = more unfolded
Compound: C[C@@H]1CN(c2ccc(-c3cc(C(=O)NCCOCCOCCOCCOCCNC(=O)/C=C/c4[nH]cc(C(=O)N[C@@H](CC(N)=O)c5ccc(F)c(Cl)c5)c4-c4ccc(Cl)cc4F)ccc3F)cc2NC(=O)c2c[nH]c(=O)cc2C(F)(F)F)C[C@H](C)N1C
WDR5: WD repeat-containing protein 5 (WDR5, Homo sapiens, UniProt P61964)
DCAF1: DDB1- and CUL4-associated factor 1 (DCAF1, Homo sapiens, UniProt Q9Y4B6)
UniProt Q9Y4B6, sequence (whole entry, looked up): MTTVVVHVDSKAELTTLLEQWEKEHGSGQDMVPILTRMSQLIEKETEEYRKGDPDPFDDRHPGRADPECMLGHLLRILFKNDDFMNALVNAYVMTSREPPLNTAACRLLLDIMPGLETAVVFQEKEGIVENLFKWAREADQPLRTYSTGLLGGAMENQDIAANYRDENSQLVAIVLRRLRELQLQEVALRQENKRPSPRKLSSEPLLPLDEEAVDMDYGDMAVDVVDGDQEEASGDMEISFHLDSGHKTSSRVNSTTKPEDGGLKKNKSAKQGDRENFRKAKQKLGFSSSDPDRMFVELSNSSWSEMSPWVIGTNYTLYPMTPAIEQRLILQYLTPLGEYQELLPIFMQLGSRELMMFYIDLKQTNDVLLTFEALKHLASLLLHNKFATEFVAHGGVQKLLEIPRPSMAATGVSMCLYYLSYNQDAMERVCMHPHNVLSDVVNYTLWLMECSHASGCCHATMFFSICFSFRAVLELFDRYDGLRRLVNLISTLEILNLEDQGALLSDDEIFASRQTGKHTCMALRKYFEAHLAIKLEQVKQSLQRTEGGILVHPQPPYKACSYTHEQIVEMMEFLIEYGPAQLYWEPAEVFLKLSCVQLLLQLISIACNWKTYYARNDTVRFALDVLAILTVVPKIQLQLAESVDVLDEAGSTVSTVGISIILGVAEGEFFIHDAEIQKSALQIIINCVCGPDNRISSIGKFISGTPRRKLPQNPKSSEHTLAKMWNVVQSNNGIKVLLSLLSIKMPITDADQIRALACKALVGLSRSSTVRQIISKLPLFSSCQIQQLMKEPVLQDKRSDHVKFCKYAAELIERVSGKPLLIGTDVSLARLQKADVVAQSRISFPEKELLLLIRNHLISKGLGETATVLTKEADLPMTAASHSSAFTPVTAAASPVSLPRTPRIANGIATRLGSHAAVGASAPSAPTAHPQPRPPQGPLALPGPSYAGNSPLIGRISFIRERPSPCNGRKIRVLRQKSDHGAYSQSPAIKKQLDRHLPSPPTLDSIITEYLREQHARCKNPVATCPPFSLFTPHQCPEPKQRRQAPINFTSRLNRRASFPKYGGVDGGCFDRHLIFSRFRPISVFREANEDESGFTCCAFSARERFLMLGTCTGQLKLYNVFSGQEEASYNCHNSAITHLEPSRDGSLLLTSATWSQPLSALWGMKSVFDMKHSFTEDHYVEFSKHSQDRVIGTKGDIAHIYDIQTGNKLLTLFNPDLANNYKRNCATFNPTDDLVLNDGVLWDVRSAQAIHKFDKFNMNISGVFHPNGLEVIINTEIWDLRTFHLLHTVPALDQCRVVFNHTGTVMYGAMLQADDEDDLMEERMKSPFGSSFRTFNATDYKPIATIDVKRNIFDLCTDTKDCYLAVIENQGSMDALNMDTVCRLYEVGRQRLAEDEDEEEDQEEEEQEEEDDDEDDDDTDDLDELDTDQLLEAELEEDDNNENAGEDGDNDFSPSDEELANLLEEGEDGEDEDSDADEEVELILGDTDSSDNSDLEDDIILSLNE
target | conditions | SYPRO Orange fluorescence [a.u.]
WDR5 | 71.41 °C | 18400
WDR5 | 41 °C | 14200
DCAF1 | 77.61 °C | 47500
WDR5 | 58.81 °C | 16100
WDR5 | 49.4 °C | 16200
DCAF1 | 72.21 °C | 53100
WDR5 | 58.21 °C | 16300
DCAF1 | 63.21 °C | 54600
WDR5 | 76.21 °C | 28800
DCAF1 | 29.8 °C | 9490
WDR5 | 92.81 °C | 47700

Sample 3
SMILES: Cc1ccc(O)c(C)c1-c1cnc2[nH]c(-c3cnc(N4CCC5(CC4)CC(N4CCN(c6ccc(NC7CCC(=O)NC7=O)cc6F)CC4)CO5)nc3)cc2c1C#N (centres unmarked)
PKMYT1: Membrane-associated tyrosine- and threonine-specific cdc2-inhibitory kinase (PKMYT1, Homo sapiens, UniProt Q99640)
UniProt Q99640, sequence (whole entry, looked up): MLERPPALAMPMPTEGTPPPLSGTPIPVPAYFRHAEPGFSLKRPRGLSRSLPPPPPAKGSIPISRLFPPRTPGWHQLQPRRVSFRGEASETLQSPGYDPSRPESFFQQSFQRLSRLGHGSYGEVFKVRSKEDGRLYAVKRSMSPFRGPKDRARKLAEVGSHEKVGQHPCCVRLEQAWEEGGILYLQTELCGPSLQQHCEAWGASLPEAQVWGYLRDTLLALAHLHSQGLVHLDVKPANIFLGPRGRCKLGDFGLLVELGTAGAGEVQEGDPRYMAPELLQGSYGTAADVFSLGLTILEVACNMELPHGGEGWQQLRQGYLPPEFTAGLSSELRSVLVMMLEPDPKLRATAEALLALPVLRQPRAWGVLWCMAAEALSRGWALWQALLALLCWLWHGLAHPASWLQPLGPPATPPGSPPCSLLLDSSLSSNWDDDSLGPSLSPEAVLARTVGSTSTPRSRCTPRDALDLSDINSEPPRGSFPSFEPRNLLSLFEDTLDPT
tested on | test | conditions | inhibition
HCC1599 | item: CDK1 phospho-Thr14 | 4.12 nM | 10.8%
HCC1599 | item: CDK1 phospho-Thr14 | 333.33 nM | 65.4%
MDA-MB-157 | item: CDK1 phospho-Thr14 | 4.12 nM | -10.4%
PKMYT1 |  | 1 µM | 101%
PKMYT1 |  | 0.000152 µM | 1.57%
HuCCT-1 | item: CDK1 phospho-Thr14 | 12.35 nM | 44%
MDA-MB-157 | item: CDK1 phospho-Thr14 | 12.35 nM | 9.1%
PKMYT1 | cell-free assay, inhibitor, TR-FRET | 51 pM | 2.45%
HuCCT-1 | item: CDK1 phospho-Thr14 | 0.0169 nM | 6.5%
HuCCT-1 | item: CDK1 phospho-Thr14 | 0.05 nM | 10.1%

Other studies, line by line — action: inhibitor; cells: CHO-BC cells; notes: unit not given
Target: Sodium-dependent neutral amino acid transporter B(0)AT1 (SLC6A19, Homo sapiens, UniProt Q695T7)
UniProt Q695T7, sequence (whole entry, looked up): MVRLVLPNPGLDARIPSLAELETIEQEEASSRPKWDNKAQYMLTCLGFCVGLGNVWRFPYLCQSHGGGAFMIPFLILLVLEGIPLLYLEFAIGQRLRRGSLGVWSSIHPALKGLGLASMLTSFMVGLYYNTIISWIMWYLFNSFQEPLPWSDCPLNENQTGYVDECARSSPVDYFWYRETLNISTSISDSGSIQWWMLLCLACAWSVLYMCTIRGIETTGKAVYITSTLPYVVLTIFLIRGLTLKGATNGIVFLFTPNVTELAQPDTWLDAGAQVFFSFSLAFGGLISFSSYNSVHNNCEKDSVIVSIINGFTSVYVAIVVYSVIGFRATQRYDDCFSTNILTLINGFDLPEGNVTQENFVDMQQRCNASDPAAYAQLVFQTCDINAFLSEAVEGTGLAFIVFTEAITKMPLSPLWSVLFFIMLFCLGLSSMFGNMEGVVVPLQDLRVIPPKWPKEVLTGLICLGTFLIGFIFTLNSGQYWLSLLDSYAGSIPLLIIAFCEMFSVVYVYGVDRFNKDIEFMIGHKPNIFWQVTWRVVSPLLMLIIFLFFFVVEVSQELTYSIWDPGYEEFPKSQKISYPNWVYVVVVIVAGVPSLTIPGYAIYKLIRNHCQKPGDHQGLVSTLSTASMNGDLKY
SMILES | test | conditions | how to read | remaining transport activity
CC(C)NC(=O)COc1ccc(Br)cc1 | L-[14C]leucine uptake | 0.1 µM, 6 min, together with: GPNA 3 mM, JPH203 3 µM | relative to: uninhibited cells | 1
CNC(=O)COc1cc(C)c(Cl)c(C)c1 | FLIPR membrane potential | 0.1 µM | relative to: no inhibitor | 1.04
CCNC(=O)COc1ccc(Br)c(C)c1 | FLIPR membrane potential | 0.003 µM | relative to: uninhibited cells | 0.887
Cc1cc(OCC(=O)NC(C)C)ccc1I | FLIPR membrane potential | 0.001 µM | relative to: uninhibited cells | 1.07

A few entries again (sample 1):
test | log2 fold change
item: LXN | -1.71
item: ST3GAL1 mRNA | 1.69
item: TSPOAP1 mRNA | -1.87
item: YPEL2 mRNA | 1.07
item: CAMK2N1 mRNA | -0.833
